Assay results pooled from the literature.
Each line is one published result; not all experiments were run side by side. ± marks the error that the study gave.
Sequence of UniProt Q8N695 (whole entry, looked up): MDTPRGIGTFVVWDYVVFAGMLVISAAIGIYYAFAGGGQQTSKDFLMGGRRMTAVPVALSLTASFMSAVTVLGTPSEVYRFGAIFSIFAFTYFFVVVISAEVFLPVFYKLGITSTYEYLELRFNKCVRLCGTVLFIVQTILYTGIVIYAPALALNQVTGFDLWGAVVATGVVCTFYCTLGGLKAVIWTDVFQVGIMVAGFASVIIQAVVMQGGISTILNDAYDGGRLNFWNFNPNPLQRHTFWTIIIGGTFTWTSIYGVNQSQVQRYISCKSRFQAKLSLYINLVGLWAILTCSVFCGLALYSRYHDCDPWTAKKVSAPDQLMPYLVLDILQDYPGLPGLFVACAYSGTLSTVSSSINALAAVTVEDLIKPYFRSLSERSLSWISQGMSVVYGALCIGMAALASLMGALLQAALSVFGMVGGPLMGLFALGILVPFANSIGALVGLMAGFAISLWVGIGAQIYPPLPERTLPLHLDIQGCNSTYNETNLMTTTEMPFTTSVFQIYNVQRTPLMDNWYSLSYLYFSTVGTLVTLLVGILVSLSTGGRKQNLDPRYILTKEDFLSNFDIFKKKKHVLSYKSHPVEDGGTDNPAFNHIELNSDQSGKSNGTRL
Sequence of UniProt Q8NKB0 (whole entry, unmodified, looked up): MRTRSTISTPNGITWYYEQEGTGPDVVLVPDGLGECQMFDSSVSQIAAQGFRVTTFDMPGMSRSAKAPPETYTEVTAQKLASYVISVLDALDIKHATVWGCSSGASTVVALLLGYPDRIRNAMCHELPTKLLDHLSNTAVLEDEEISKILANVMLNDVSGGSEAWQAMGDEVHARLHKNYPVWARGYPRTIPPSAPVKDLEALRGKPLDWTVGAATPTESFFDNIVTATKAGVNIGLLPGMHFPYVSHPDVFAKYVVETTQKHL
Sequence of UniProt P04079 (whole entry, looked up): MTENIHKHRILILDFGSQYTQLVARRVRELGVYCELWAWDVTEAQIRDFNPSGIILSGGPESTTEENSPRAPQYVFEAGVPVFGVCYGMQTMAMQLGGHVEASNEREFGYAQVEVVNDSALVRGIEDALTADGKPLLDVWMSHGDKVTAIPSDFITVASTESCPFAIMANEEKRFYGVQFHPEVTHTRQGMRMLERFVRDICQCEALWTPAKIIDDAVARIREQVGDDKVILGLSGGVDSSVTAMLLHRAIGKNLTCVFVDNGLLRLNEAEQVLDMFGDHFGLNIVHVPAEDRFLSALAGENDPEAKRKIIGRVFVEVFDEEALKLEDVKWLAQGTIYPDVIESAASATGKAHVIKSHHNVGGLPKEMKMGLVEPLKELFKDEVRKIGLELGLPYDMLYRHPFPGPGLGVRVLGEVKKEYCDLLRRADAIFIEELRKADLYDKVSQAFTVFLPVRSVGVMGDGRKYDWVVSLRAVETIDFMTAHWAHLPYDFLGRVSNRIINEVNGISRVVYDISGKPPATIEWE
Sequence of UniProt P09958 (whole entry, looked up): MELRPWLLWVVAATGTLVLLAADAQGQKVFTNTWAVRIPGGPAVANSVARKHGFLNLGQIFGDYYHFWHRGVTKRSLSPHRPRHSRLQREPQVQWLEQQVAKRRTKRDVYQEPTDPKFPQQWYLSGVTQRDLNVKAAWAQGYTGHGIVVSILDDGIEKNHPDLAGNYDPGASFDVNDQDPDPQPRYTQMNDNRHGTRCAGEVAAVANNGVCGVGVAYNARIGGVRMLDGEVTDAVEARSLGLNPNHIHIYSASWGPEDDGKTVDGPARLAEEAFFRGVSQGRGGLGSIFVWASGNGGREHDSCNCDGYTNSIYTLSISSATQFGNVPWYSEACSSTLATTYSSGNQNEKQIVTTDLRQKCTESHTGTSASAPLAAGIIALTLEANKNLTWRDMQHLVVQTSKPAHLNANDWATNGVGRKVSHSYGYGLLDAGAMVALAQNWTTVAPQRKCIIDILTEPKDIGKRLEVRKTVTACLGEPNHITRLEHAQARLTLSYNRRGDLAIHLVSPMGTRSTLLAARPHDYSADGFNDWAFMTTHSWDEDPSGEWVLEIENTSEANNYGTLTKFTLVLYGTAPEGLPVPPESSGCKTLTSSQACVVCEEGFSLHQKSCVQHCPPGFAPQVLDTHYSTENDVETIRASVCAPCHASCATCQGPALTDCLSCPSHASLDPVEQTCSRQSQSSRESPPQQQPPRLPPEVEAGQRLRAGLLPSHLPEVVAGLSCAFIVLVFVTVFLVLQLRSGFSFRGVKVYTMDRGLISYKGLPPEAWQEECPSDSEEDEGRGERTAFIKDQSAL
Sequence of UniProt O00748 (whole entry, looked up): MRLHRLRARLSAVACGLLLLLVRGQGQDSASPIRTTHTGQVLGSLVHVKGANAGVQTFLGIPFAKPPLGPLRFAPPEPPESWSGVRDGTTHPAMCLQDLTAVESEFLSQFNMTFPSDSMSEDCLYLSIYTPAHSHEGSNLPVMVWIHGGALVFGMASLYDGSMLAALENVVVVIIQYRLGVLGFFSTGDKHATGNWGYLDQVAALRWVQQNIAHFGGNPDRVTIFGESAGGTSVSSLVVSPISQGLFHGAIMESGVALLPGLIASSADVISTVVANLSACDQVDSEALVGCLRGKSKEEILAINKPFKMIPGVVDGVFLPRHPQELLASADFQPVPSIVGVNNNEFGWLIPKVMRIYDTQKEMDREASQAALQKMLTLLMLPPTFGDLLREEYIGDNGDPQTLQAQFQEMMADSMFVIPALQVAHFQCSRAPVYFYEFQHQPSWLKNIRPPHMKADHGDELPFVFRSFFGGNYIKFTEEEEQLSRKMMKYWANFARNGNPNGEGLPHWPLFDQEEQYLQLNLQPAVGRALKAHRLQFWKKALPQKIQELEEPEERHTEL

| SMILES | target | test | test system | setting | Km [µM] |
| --- | --- | --- | --- | --- | --- |
| O=c1[nH]c(=O)c2ncn([C@H]3O[C@@H](COP(=O)(O)O)[C@H](O)[C@@H]3O)c2[nH]1 | GMP synthase [glutamine-hydrolyzing] (guaA, Escherichia coli, UniProt P04079) | substrate, HPLC |  | added: saturating ATP and NH4OAc | 317 ± 55.6 |
| CC1Nc2nc(N)[nH]c(=O)c2NC1C (stereo not shown) | Phenylalanine-4-hydroxylase (phhA, Chromobacterium violaceum, UniProt P30967) | enzyme activity, cofactor |  | pH 7.4, 20 °C, wild-type enzyme, added: saturating phenylalanine | 152 ± 2 |
| Cc1cc(=O)oc2c(F)c(OP(=O)(O)O)c(F)cc12 | PTPN11 (Homo sapiens, UniProt Q06124) | substrate |  | pH 7.2 | 5800 ± 700 |
| CC(=O)N[C@@H](CCCNC(=N)N)C(=O)N[C@H](C(=O)N[C@@H](CCCNC(=N)N)C(=O)N[C@@H](CCCNC(=N)N)C(=O)N[C@@H](CSSC(C)(C)C)C(=O)N[C@@H](CCCCNC(=O)c1ccc(F)cc1)C(=O)Nc1ccc2nc(C#N)sc2c1)C(C)C | Furin (FURIN, Homo sapiens, UniProt P09958) | enzyme activity, substrate, HPLC |  |  | 242 |
| Cc1cn([C@H]2C[C@H](O)[C@@H](CO)O2)c(=O)[nH]c1=O | Trichomonas vaginalis higher-affinity nucleoside transporter | substrate | trophozoites, Trichomonas vaginalis | higher-affinity component | ~20 |
| C[C@H]1CCCC(=O)CCC/C=C/c2cc(O)cc(O)c2C(=O)O1 | zhd101 (Clonostachys rosea, UniProt Q8NKB0, D157K/E171K) | substrate, HPLC |  | 10 min, pH 5.5, 37 °C, 1% acetonitrile | 83200 ± 5460 |
| CC(C)(OO)c1ccccc1 | gpx2 (Trypanosoma brucei, UniProt Q869A6, T78N) |  |  |  | 346 ± 88 |
| CCCCCCCCCCCC(=O)OC1=CC(C)(C)N([O])C(C)(C)C1 | Cocaine esterase (CES2, Homo sapiens, UniProt O00748) |  |  |  | 48.1 ± 4.29 |
| CC(=O)SCCNC(=O)CCNC(=O)[C@H](O)C(C)(C)COP(=O)(O)OP(=O)(O)OC[C@H]1O[C@@H](n2cnc3c(N)ncnc32)[C@H](O)[C@@H]1OP(=O)(O)O | 2-isopropylmalate synthase, heterodimer with wild-type (leuA, Neisseria meningitidis serogroup B, UniProt Q9JZG1, R470Q) | enzyme activity, substrate, DTP-coupled |  | R470Q heterodimer, one chain, added: α-ketoisovalerate 300 µM | 38 ± 4 |
| CC(=O)SCC[N+](C)(C)C | acetylcholinesterase | substrate | Lymnaea acuminata, nervous tissue | pH 8.0, 25 °C, no inhibitor | 6730 |
| COC1=C(OC)C(=O)C(CC=C(C)C)=C(C)C1=O | Type II NADH dehydrogenase (Plasmodium falciparum, UniProt Q8I302) | enzyme activity, substrate |  | added: co-substrate 500 µM | 2.2 ± 1.2 |
| NC(=O)C1=CN([C@@H]2O[C@H](COP(=O)(O)OP(=O)(O)OC[C@H]3O[C@@H](n4cnc5c(N)ncnc54)[C@H](OP(=O)(O)O)[C@@H]3O)[C@@H](O)[C@H]2O)C=CC1 | GMP reductase (GMPR, Leishmania major, UniProt Q4QEB3) | substrate |  | pH 6.9, 25 °C, added: GMP 300 µM | 9 ± 2 |
| Oc1cc(Cl)ccc1Oc1ccc(Cl)cc1Cl | laccase LacT (Brevibacillus agri) | substrate |  | pH 3.0, 50 °C, 20% ethanol | 42.4 ± 1.99 |
| CC(C)C(=O)C(=O)O | 2-isopropylmalate synthase, heterodimer with wild-type (leuA, Neisseria meningitidis serogroup B, UniProt Q9JZG1, R32Q) | enzyme activity, substrate, DTP-coupled |  | R32Q heterodimer, one chain, added: acetyl-CoA 300 µM | 48 ± 6 |
| C[C@H](N)C(=O)O | BasC (Carnobacterium sp. AT7) | substrate | proteoliposomes | pH 7.4, room temperature, intracellular side, added: [3H]L-serine | 1500 ± 200 |
| O=[N+]([O-])c1ccc(Cl)c([N+](=O)[O-])c1 | Glutathione S-transferase mu 1 (Clonorchis sinensis, UniProt H2KRI2) | substrate |  |  | 741 |
| C/C1=C2/N[C@H]([C@H](CC(N)=O)[C@@]2(C)CCC(=O)NC[C@@H](C)OP(=O)(O)O[C@H]2[C@@H](O)[C@@H](n3cnc4cc(C)c(C)cc43)O[C@@H]2CO)[C@]2(C)N=C(/C(C)=C3N=C(/C=C4N=C1[C@@H](CCC(N)=O)C\4(C)C)[C@@H](CCC(N)=O)[C@]\3(C)CC(N)=O)[C@@H](CCC(N)=O)[C@]2(C)CC(N)=O.[Co] | Corrinoid adenosyltransferase CobA (btuR, Salmonella typhimurium, UniProt P31570, F91W) |  |  |  | 5 ± 2 |
| Nc1ncnc2c1ncn2[C@@H]1O[C@H](COP(=O)(O)OP(=O)(O)OP(=O)(O)O)[C@@H](O)[C@H]1O | Tyrosine--tRNA ligase 2 (tyrS2, Pseudomonas aeruginosa, UniProt Q9I5Q3) | substrate, ATP-PPi exchange |  | TyrRS-Z, co-substrate 2 mM | 496 |
| c1ccc(C2CO2)cc1 (racemic) | Karenia brevis epoxide hydrolase | substrate |  | pH 7.0 | 6570 |
| CC(C)[C@H](N)C(=O)N[C@@H](CCCNC(=N)N)C(=O)Nc1ccc2c(CC(N)=O)cc(=O)oc2c1 | DPAP1 (Plasmodium falciparum, UniProt Q8IIJ9) | hydrolysis, substrate, fluorogenic dipeptide, native enzyme |  | pH 6.0, 25 °C, added: 30 mM chloride | 21 ± 2 |
| C(CCC1CO1)CC1CO1 (stereo not shown) | Karenia brevis epoxide hydrolase | substrate |  | pH 7.0 | 4800 |
| O=C(O)C(Cl)(Cl)Cl | SLC5A8 (Homo sapiens, UniProt Q8N695) | substrate, two-electrode voltage clamp | Xenopus laevis oocytes |  | 134 ± 11 |

Excerpt of the above:
| SMILES | target | test | test system | setting | Km [µM] |
| --- | --- | --- | --- | --- | --- |
| COC1=C(OC)C(=O)C(CC=C(C)C)=C(C)C1=O | Type II NADH dehydrogenase (Plasmodium falciparum, UniProt Q8I302) | enzyme activity, substrate |  | added: co-substrate 500 µM | 2.2 ± 1.2 |
| C[C@H](N)C(=O)O | BasC (Carnobacterium sp. AT7) | substrate | proteoliposomes | pH 7.4, room temperature, intracellular side, added: [3H]L-serine | 1500 ± 200 |
| c1ccc(C2CO2)cc1 (racemic) | Karenia brevis epoxide hydrolase | substrate |  | pH 7.0 | 6570 |
